Measured values collected from several papers.
Each line is one published result; not all experiments were run side by side. “And” joins repeats or separate records; there may be more than shown. ± gives the spread as reported.
USP20 ZnF-UBD domain: Ubiquitin carboxyl-terminal hydrolase 20, ZnF-UBD domain (USP20, Homo sapiens, UniProt Q9Y2K6)
UniProt Q9Y2K6, sequence (whole entry, looked up): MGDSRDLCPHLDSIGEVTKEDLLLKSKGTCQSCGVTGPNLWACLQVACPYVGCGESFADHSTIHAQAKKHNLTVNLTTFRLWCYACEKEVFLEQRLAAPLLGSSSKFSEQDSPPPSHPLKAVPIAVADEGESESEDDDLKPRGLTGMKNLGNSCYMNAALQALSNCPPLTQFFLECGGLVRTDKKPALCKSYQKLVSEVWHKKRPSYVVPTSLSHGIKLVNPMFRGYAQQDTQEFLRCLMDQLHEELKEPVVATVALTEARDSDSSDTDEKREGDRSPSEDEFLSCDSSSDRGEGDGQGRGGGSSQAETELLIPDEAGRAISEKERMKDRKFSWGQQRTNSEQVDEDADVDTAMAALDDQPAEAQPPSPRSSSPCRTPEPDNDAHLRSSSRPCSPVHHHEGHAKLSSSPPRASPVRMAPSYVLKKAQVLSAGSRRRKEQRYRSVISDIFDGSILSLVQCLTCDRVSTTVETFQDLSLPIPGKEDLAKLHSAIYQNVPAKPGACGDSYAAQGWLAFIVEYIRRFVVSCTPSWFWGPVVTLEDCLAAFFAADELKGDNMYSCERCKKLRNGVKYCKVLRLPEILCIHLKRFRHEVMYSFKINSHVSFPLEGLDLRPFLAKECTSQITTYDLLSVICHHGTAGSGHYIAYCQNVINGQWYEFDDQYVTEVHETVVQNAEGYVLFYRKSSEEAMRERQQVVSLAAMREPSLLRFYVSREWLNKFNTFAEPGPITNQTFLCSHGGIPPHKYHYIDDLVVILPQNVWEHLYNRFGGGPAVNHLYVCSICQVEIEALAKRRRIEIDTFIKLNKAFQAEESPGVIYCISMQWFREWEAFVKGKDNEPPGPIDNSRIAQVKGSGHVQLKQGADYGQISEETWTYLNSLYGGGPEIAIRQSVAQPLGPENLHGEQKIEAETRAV
UniProt P49840, sequence (whole entry, looked up): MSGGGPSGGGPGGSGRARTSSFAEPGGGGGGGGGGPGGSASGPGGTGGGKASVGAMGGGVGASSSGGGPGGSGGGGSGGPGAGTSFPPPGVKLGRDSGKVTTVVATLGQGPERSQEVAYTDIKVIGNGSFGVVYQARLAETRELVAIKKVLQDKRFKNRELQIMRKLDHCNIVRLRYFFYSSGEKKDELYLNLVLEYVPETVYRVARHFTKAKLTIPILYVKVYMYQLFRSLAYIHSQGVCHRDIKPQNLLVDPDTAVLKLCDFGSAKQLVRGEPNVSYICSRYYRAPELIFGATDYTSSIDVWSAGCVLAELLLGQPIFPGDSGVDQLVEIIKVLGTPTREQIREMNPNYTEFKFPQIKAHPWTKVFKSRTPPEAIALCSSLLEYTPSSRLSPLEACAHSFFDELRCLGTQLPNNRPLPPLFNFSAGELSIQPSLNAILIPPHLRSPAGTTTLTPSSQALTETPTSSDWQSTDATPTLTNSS
UniProt Q9UNQ0, sequence (whole entry, looked up): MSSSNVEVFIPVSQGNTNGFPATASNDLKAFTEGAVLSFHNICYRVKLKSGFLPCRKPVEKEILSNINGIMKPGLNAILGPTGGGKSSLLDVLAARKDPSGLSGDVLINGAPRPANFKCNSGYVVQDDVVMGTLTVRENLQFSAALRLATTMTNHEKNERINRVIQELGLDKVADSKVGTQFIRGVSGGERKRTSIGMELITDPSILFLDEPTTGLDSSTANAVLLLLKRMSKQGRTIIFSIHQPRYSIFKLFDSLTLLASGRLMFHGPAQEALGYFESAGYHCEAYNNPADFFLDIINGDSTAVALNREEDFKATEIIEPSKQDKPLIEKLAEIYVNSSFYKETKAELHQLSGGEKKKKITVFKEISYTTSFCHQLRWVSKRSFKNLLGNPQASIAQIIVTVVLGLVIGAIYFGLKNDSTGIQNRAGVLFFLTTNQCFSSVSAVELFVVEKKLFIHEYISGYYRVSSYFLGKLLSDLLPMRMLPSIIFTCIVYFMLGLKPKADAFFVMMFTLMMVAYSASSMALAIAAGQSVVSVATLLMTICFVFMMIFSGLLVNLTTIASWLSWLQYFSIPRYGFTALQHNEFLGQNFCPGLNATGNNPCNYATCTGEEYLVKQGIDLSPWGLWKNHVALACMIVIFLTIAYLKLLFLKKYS

COC[C@@H](CC(C)C)NC(=O)c1ccc(C)c(C)c1  mitotic index (primary human lymphocytes; 280 µg/mL, 4 h): 8.9
Cc1ccc(S(=O)(=O)Nn2c(N)c(C#N)cc(C#N)c2=O)cc1  maximum non-toxic concentration (HEp-2; 72 h): 90 µg/mL
O=C(O)CCC1=Nc2cccc3cccc(c23)N1  Kd (USP20 ZnF-UBD domain): > 1000 µM
Cc1cc(Nc2ccc(S(F)(F)(F)(F)F)cc2)n2nc(C(C)(F)F)nc2n1  patients with QTcB above threshold (Plasmodium vivax; 12-lead Holter ECG; human malaria patients; oral, 400 mg, QTc above 450 ms): 20%
Cc1ccc(S(=O)(=O)Nc2nc(N)c(-c3nc4ccccc4s3)c(-c3ccccc3)n2)cc1  maximum non-toxic concentration (HEp-2; cytotoxicity; 72 h): 90 µg/mL
Cc1c(C)c2c(c(C)c1O)CCC(C)(COc1ccc(CC3SC(=O)NC3=O)cc1)O2 (stereo not drawn)  cytotoxicity (HepaRG; CellTiter-Glo; up to 100 µM, 24 h): < 15%
Cc1ccc(S(=O)(=O)Nc2ncc(-c3nc4ccccc4s3)c(N)n2)cc1  maximum non-toxic concentration (HEp-2; cytotoxicity; 72 h): 110 µg/mL
C[C@]12CC[C@@H]3c4ccc(O)cc4C[C@@H](CCCCCCCCC[S+]([O-])CCCC(F)(F)C(F)(F)F)[C@H]3[C@@H]1CC[C@@H]2O (stereo partly drawn)  viability (T47D; CCK-8; 20 nM; reference: untreated): 84.7% and 83.5% and 76.2%
COc1cc(C2=CCCc3c2ccc(OC)c3OCc2ccc([N+](=O)[O-])cc2)cc(OC)c1OC  hypoxic cytotoxicity ratio (A549; 4 h anoxic; reference: oxic IC50 over anoxic IC50): 1.9
CCCCc1nc2c(N)nc3ccccc3c2n1Cc1ccc(CN)cc1  cytotoxicity (Ramos; up to 30 µM): not toxic
COc1ccc2c(c1NC(=O)OCc1ccc([N+](=O)[O-])s1)CCC=C2c1cc(OC)c(OC)c(OC)c1  hypoxic cytotoxicity ratio (A549; 4 h anoxic; reference: oxic IC50 over anoxic IC50): 1.7
CC[C@]1(O)C[C@H]2CN(CCc3c([nH]c4ccccc34)[C@@](C(=O)OC)(c3cc4c(cc3OC)N(C=O)[C@H]3[C@@](O)(C(=O)OC)[C@H](OC(C)=O)[C@]5(CC)C=CCN6CC[C@]43[C@@H]65)C2)C1  viability (CHP-212 resistant subline R2 (heterozygous USP7 V517F); cell viability; 1111.11 nM): 15.7% and 12.9% and 11.9%
Nc1n[nH]c2c(-c3nc4ccccc4s3)c(N)n(NS(=O)(=O)c3ccccc3)c(=O)c12  maximum non-toxic concentration (HEp-2; 72 h): 90 µg/mL
COC(=O)c1cc(C(C)=NNc2nc(-c3ccc4c(c3)OCCCO4)cs2)ccc1O  necrotic cells (T47D; annexin V/PI flow cytometry; 40 µM, 72 h): 0.97 ± 0.17%
CC[C@H]1[C@@H](O)[C@@H]2[C@H](CC[C@]3(C)[C@@H]([C@H](C)CCNC(=O)NS(=O)(=O)c4ccc(C(C)(C)C)cc4)CC[C@@H]23)[C@@]2(C)CC[C@@H](O)C[C@@H]12  half-life (ATP-dependent translocase ABCB1 (ABCB1, Homo sapiens, UniProt P08183); human, plasma; dose not given, geometric mean, alone): 10.6 h
O=C1C(O)=C([C@H]2CC[C@H](c3ccc(Cl)cc3)CC2)C(=O)c2ccccc21  selectivity index (differentiated THP-1; 72 h; reference: THP-1 CC50 over EC50): 91
COc1cccc(-c2n[nH]c(SCc3ccccn3)n2)c1OC  micronuclei per binucleated cell (CHO-WBL; in vitro micronucleus test; 100 µg/mL, 3 h): 0.014
O=C(O)CCn1cccn1  Kd (USP20 ZnF-UBD domain): 182 µM
Cc1nc(C)c(Cl)c(O)c1Cl  CC50 (LMH chicken hepatoma cells): 42.5 µM
CCC(CC)COC(=O)[C@H](C)N[P@](=O)(OC[C@H]1O[C@@](C#N)(c2ccc3c(N)ncnn23)[C@H](O)[C@@H]1O)Oc1ccccc1  CC50 (primary human hepatocytes; item: DNA; 4 h): > 30 µM
COc1cc(C2=CCCc3c2ccc(OC)c3OCc2ccc([N+](=O)[O-])s2)cc(OC)c1OC  hypoxic cytotoxicity ratio (A549; 4 h anoxic; reference: oxic IC50 over anoxic IC50): 0.76
C[C@]12CCCN1CC1=NNC(=O)c3cc(F)cc4[nH]c2c1c34  uptake ratio (Broad substrate specificity ATP-binding cassette transporter ABCG2 (ABCG2, Homo sapiens, UniProt Q9UNQ0); substrate; 0.5 µM; reference: ATP over AMP): 0.83
Cc1ccc(-c2nc(NS(=O)(=O)c3ccccc3)nc(N)c2-c2nc3ccccc3s2)cc1  maximum non-toxic concentration (HEp-2; cytotoxicity; 72 h): 90 µg/mL
Clc1ccc(COc2ccccc2CNCc2cccnc2)cc1  cytotoxic concentration (HEK293): > 12.5 µM
CO[C@@]12[C@H](COC(N)=O)C3=C(C(=O)C(C)=C(N)C3=O)N1C[C@@H]1N[C@@H]12  cytostasis (human peripheral blood lymphocytes; 0.125 µg/mL, 24 h, without S9): 23%
CSc1c(-c2nc3ccccc3[nH]2)c(N)n(NS(=O)(=O)c2ccccc2)c(=O)c1C#N  maximum non-toxic concentration (HEp-2; 72 h): 100 µg/mL
C1CCc2c(c(N3CCOCC3)nc3sc4c(N5CCNCC5)nnnc4c23)C1  percentage of drug-related material (cryopreserved mouse hepatocytes; UHPLC-MS peak area; 1 µM, 20 min): 47.9%
N#Cc1cc(C#N)c(=O)n(NS(=O)(=O)c2ccccc2)c1N  maximum non-toxic concentration (HEp-2; 72 h): 100 µg/mL
CN(C)[C@@H]1C(O)=C(C(N)=O)C(=O)[C@@]2(O)C(O)=C3C(=O)c4c(O)ccc(Cl)c4[C@@](C)(O)[C@H]3C[C@@H]12  CC50 (LMH chicken hepatoma cells): 50.4 µM
CC[C@]1(O)C[C@@H]2CN(CCc3c([nH]c4ccccc34)[C@@](C(=O)OC)(c3cc4c(cc3OC)N(C)[C@H]3[C@@](O)(C(=O)OC)[C@H](OC(C)=O)[C@]5(CC)C=CCN6CC[C@]43[C@@H]65)C2)C1  cytotoxicity (human peripheral blood lymphocytes; CBPI, micronucleus test; 7.5 ng/mL, 24 h, without S9; reference: vehicle): 11%
Cc1cc(C)c(CNC(=O)c2cc(Cl)c3c(c2C)O[C@@](C)([C@H]2CC[C@H](N(C)C)CC2)O3)c(=O)[nH]1  efflux ratio (Caco-2; 20 µM, with: verapamil 100 µM): 1.09
Cc1ccc(-c2nc(NS(=O)(=O)c3ccc(C)cc3)nc(N)c2-c2nc3ccccc3s2)cc1  maximum non-toxic concentration (HEp-2; cytotoxicity; 72 h): 100 µg/mL
CC(C)C[C@H](NC(=O)C[C@H](O)[C@H](CC(C)C)NC(=O)[C@H](Cc1c[nH]cn1)NC(=O)CNC(=O)[C@@H](NC(=O)[C@H](C)NC(=O)[C@H](Cc1c[nH]c2ccccc12)NC(=O)[C@H](CCC(N)=O)NC(=O)[C@@H](Cc1ccccc1)NC(=O)COCCOCCNC(=O)CCC(C(=O)O)N1CCN(CC(=O)O)CCN(CC(=O)O)CCN(CC(=O)O)CC1)C(C)C)C(N)=O (stereo partly drawn) [lutetium-177 labelled]  tissue uptake (BALB/c nu/nu mice, spleen; intravenous, 750 pmol, 1 h, with: PA 300 µg): 0.2 ± 0.1 %ID/g
NC(=O)c1nnn([C@@H]2C(F)=C(CO)[C@@H](O)[C@H]2O)c1N  CC50 (BHK-D2-Rluc; MTT; 48 (unit not given)): > 100 µM
CO[C@@H]1[C@H](OC(=O)/C=C/C=C/C=C/C=C/C(=O)O)CC[C@]2(CO2)[C@H]1[C@@]1(C)O[C@@H]1CC=C(C)C  CC50 (LMH chicken hepatoma cells): ~200 µM
Clc1cccc(COc2ccccc2CNCc2ccccc2)c1  cytotoxic concentration (A549): > 12.5 µM
CC(=O)CNc1nc(NS(=O)(=O)c2ccccc2)ncc1-c1nc2ccccc2s1  maximum non-toxic concentration (HEp-2; cytotoxicity; 72 h): 80 µg/mL
C[C@@H](c1ccc2nccn2c1)n1nnc2ncc(-c3cnn(C)c3)nc21  F2 (primary human hepatocytes; item: CYP3A4 mRNA; 48 h, twofold induction concentration): 3.4 to 4.1 µM
CC[C@@H]1[C@H](F)C(=O)N[C@@H]1COc1nccc2cc(C(N)=O)c(OC)cc12  inhibition (Glycogen synthase kinase-3 alpha (GSK3A, Homo sapiens, UniProt P49840); ATP-site probe binding, ActivX profiling; THP-1 cell lysate; 0.01 mM, Lys2 site): -6%
c1csc(CNc2cc[nH]n2)c1  numerical aberration cells (human peripheral blood lymphocytes; 100 µg/mL, 20 h): 0%
CC[C@H](CO)N(CCN(N=O)[C@H](CC)CO)N=O  revertant colonies per plate (Salmonella typhimurium; mutagenicity, Ames plate incorporation; TA98; 1500 µg/plate, without S9, methanol): 27.7 ± 2
Cc1ccc(S(=O)(=O)Nc2nc(N)c(-c3nc4ccccc4s3)c(-c3ccc(F)cc3)n2)cc1  maximum non-toxic concentration (HEp-2; cytotoxicity; 72 h): 100 µg/mL
Cc1cc(C(=O)NC(C)(C)COc2cccc3c2C(N)=NS(=O)(=O)N3)cc(C)n1  cytotoxicity (human peripheral blood lymphocytes; CBPI, preliminary test; 200 µg/mL, 24 h; reference: vehicle control): -1%
O=C(CNc1nc(NS(=O)(=O)c2ccccc2)ncc1-c1nc2ccccc2s1)c1ccc(Br)cc1  maximum non-toxic concentration (HEp-2; cytotoxicity; 72 h): 120 µg/mL
O=C1c2ccccc2C(=O)c2c(NCCc3ccc(O)cc3)ccc(NCCc3ccc(O)cc3)c21  selectivity index (differentiated THP-1; 72 h; reference: THP-1 CC50 over EC50): 1
